# Measurements collected from several papers.
# Sequences of proteins named here, by UniProt entry; tags and fusion partners are left off. A line that says so, or that is headed by a name, gives the form on record, which may keep a tag or linker. Residues count along the entry.
# UniProt P37136, 32-614 limits assumed: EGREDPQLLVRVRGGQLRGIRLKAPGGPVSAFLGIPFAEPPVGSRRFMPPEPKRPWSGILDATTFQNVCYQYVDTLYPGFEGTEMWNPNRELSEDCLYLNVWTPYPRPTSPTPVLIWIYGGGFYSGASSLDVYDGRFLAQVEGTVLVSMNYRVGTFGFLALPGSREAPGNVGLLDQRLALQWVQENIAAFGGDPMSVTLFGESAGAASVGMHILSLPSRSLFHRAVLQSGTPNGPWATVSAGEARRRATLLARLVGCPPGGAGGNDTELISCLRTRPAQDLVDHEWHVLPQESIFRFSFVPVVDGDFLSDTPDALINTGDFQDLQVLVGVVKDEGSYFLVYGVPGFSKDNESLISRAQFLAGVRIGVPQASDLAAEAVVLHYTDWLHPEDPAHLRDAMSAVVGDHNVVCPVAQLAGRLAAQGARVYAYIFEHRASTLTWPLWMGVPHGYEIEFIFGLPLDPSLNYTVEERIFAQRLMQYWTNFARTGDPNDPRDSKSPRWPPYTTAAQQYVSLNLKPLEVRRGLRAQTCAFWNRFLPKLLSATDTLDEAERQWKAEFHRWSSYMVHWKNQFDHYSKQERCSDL
# UniProt P08510, 1-655 with tags or gaps DEL6-46: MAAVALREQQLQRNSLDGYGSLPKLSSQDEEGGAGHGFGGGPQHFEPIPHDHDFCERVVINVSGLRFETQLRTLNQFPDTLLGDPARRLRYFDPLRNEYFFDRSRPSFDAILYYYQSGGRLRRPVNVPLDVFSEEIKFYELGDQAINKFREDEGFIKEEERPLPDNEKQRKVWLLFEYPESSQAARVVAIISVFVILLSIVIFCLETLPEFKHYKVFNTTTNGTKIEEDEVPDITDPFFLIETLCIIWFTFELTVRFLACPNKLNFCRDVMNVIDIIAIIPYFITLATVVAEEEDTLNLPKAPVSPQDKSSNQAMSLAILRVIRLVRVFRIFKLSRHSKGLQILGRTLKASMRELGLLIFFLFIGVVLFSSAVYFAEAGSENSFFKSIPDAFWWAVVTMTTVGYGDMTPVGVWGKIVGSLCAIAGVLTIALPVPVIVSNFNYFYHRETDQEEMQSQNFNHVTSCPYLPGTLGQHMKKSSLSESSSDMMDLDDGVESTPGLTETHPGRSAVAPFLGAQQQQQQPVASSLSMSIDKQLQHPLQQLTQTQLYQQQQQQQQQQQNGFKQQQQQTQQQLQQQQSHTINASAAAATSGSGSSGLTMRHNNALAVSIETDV
# UniProt Q16762, whole entry: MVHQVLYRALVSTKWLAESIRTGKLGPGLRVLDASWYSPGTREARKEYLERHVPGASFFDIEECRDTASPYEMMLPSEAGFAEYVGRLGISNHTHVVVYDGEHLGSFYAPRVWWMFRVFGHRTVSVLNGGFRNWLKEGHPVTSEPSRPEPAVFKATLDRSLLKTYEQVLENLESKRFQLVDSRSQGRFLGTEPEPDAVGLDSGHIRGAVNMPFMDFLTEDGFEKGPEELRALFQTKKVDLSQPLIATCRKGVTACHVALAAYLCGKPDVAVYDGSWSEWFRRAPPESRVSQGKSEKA
# UniProt P41146, whole entry: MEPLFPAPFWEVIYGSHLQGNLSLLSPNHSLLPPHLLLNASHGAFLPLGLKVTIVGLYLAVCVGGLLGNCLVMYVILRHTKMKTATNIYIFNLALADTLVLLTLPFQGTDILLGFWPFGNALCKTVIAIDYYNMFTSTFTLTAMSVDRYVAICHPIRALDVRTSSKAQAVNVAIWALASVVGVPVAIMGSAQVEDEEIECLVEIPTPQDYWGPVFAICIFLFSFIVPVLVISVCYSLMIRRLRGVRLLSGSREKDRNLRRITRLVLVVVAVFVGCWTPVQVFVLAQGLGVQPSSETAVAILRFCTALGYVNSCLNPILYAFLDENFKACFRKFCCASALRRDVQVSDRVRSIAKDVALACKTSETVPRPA
# UniProt Q8I719, whole entry: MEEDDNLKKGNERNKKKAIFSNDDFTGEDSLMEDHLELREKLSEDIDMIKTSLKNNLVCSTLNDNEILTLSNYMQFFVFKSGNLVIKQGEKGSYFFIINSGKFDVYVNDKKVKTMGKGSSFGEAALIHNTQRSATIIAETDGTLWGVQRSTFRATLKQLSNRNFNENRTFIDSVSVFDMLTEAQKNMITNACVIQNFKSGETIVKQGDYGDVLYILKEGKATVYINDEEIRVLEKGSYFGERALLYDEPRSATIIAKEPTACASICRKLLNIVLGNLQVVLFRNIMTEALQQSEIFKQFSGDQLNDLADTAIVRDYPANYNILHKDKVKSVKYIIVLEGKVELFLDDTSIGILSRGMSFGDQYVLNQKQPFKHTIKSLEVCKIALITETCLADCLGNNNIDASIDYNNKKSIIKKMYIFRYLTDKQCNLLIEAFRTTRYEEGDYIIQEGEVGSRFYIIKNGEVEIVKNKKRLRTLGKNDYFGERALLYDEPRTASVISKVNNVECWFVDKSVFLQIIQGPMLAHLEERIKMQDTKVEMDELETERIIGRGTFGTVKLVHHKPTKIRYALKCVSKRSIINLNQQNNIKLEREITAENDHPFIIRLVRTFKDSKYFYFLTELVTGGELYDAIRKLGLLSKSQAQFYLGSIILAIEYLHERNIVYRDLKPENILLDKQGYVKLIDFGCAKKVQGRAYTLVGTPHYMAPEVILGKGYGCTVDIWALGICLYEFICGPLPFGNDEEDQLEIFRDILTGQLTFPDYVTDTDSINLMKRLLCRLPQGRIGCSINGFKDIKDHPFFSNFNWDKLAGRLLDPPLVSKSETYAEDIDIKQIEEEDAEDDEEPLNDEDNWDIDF
# Compare with care: the assays were run in different laboratories. ± marks the error that the study gave.
# dfrA: Dihydrofolate reductase (dfrA, Bacillus anthracis, UniProt Q81R22)
Compound,target or system,test,test system,setting,how to read,endpoint,value
Cc1ccc(OCCN(C)C)cc1C(=O)N[C@H](C)c1cc(-c2cnn(CCO)c2)cc(-c2cnn(C(F)F)c2)c1,"Replicase polyprotein 1ab, papain-like protease (rep, Severe acute respiratory syndrome coronavirus 2, UniProt P0DTD1)","protease activity, inhibitor",FlipGFP reporter cells,,,EC50,> 10000 nM
CC[C@H](C)[C@H](NC(=O)[C@H](C)NC(=O)[C@H](CCC(=O)O)NC(=O)[C@H](CCC(=O)O)NC(=O)[C@H](CC(C)C)NC(=O)[C@H](CCCCN)NC(=O)[C@H](CCCCN)NC(=O)[C@H](CCSC)NC(=O)[C@H](CCC(=O)O)NC(=O)[C@H](Cc1ccc(O)cc1)NC(=O)[C@H](CCC(=O)O)NC(=O)[C@H](CC(C)C)NC(=O)[C@H](CC(=O)O)NC(=O)[C@H](CC(C)C)NC(=O)[C@H](Cc1ccccc1)NC(=O)[C@H](Cc1ccccc1)NC(=O)[C@@H](NC(=O)[C@H](CC(N)=O)NC(=O)[C@@H](NC(=O)[C@H](CCC(N)=O)NC(=O)[C@H](CC(=O)O)NC(=O)[C@H](CC(C)C)NC(=O)[C@@H](N)CO)[C@@H](C)CC)C(C)C)C(=O)N[C@@H](CCCCN)C(=O)N[C@@H](CCCCN)C(=O)N[C@@H](CC(C)C)C(=O)N[C@@H](CCC(=O)O)C(=O)N[C@@H](CCC(=O)O)C(=O)N[C@@H](C)C(=O)N[C@@H](Cc1ccc(O)cc1)C(=O)N[C@H](C(=O)N[C@@H](CC(=O)O)C(=O)N[C@@H](CC(C)C)C(=O)N[C@@H](CCCCN)C(=O)N[C@@H](CCC(=O)O)C(=O)N[C@@H](CC(C)C)C(=O)O)[C@@H](C)CC,SARS-CoV-2 XBB.1.5 pseudovirus,"pseudovirus infection, inhibitor, luciferase",Caco-2,"24 h, dual mutations",,IC50,2050 nM
CCC1(C2OC(C3OC(O)(CO)C(C)CC3C)CC2C)CCC(C2(C)CCC3(CC(O)C(C)C(C(C)C(OC)C(C)C(=O)O)O3)O2)O1 (stereo not drawn),"L/N (Lassa virus, UniProt O09705+P13699)","viral replication, Gaussia luciferase reporter",,,,EC50,270 nM
COc1ccc(S(=O)(=O)Nc2cccc(C(=O)NC3CCN(c4ncnc5[nH]cnc45)CC3)c2)cc1,SARS-CoV-2,,Wuhan-Hu-1,0.01016 µM,relative to: untreated infected cells,relative infection,83.7%
CCOP(=O)(OCC)ON1C(=O)c2cccc3cccc(c23)C1=O,"Acetylcholinesterase (Ache, Rattus norvegicus, UniProt P37136)","enzyme activity, inhibitor","rat, postnatal day 70, rat serum",added: carboxylesterase and BChE inhibitors,,IC50,32 nM
CC[C@H](C)[C@@H]1NC(=O)[C@H](CCCNC(=N)N)NC(=O)[C@@H](N)CSSC[C@@H]2NC(=O)[C@@H]3CSSC[C@@H](C(=O)N[C@H](C(=O)O)C(C)C)NC(=O)[C@H](CCCCN)NC(=O)[C@H](CC(N)=O)NC(=O)[C@H](Cc4ccccc4)NC(=O)[C@H](CCCNC(=N)N)NC(=O)[C@H](CC(N)=O)NC(=O)[C@H](CSSC[C@H](NC(=O)[C@H](CCCCN)NC(=O)[C@H](CCC(N)=O)NC(=O)[C@H](CC(N)=O)NC(=O)[C@@H]4C[C@@H](O)CN4C1=O)C(=O)N[C@@H](Cc1ccccc1)C(=O)N[C@@H](CCC(N)=O)C(=O)N[C@@H](Cc1c[nH]cn1)C(=O)N[C@@H](CC(C)C)C(=O)N[C@@H](CC(=O)O)C(=O)N[C@@H](CC(=O)O)C(=O)N3)NC(=O)[C@H](CCCCN)NC(=O)[C@H](CCCNC(=N)N)NC(=O)[C@H](CO)NC2=O,"Sh (Drosophila melanogaster, UniProt P08510, del6-46)","potassium current, two-electrode voltage clamp",Xenopus oocytes,"external K 100 mM, zero voltage",,Kd,610 ± 100 nM
"Cc1cc(S(=O)(=O)N[C@@H](C(=O)NO)C2CCOCC2)ccc1F (single isomer, unassigned)","Lethal factor (Bacillus anthracis, UniProt P15917)","enzyme activity, inhibitor",,,,Ki,46 nM
"O=C(NCc1ccccc1)C(N[C@@H]1CCSC1=O)C1CC1 (single isomer, unassigned)","Thiosulfate sulfurtransferase (TST, Homo sapiens, UniProt Q16762)","enzyme activity, activator, cyanide to thiocyanate conversion",,,,EC50,2300 ± 4200 nM
CNC(=O)CC1C(=O)N(C2CCN([C@H]3CC[C@@H](C(C)C)CC3)CC2)c2ccccc21 (stereo partly drawn),"Nociceptin receptor (OPRL1, Homo sapiens, UniProt P41146)",binding,,,,Ki,1.13 nM
COc1cc(Cc2cnc(N)nc2N)cc(/C=C/C(=O)N2N=Cc3ccccc3C2C=C(C)C)c1OC (racemic),dfrA,inhibitor,,,,Ki,8.2 nM
CN1C(=O)CCc2cc(C(=O)NCC=CS(C)(=O)=O)ccc21,"Polyprotein P1234, nsP2 protease (Chikungunya virus, UniProt Q5XXP4)",time-dependent inhibition,,,,Ki,2200 ± 400 nM
COc1cc(Cc2cnc(N)nc2N)cc(/C=C/C(=O)N2N=Cc3ccccc3C2CC(C)C)c1OC (racemic),dfrA,inhibitor,,,,Ki,6.9 nM
O=C(NC1CCN(c2ncnc3[nH]cnc23)CC1)c1cccc(S(=O)(=O)Nc2ccc(Cl)cc2)c1,SARS-CoV-2,,Wuhan-Hu-1,0.03048 µM,relative to: untreated infected cells,relative infection,78.6%
CCC(CC)C1c2ccccc2C=NN1C(=O)/C=C/c1cc(Cc2cnc(N)nc2N)cc(OC)c1OC (racemic),dfrA,inhibitor,,,,Ki,12.5 nM
CS(=O)(=O)Cc1onc(-c2cccc(Cl)c2)c1-c1ccnc(N[C@@H]2CCN(C(=O)c3nccs3)C2)n1,"cGMP-dependent protein kinase (PKG, Plasmodium falciparum, UniProt Q8I719)","kinase activity, inhibitor, IMAP",,,,Ki,0.6 ± 0.06 nM
